Assay results of several laboratories.
Lines come from different studies, so protocols differ. ± gives the spread as reported.

| Structure (SMILES) | assay | system | conditions | scale | endpoint | value |
| --- | --- | --- | --- | --- | --- | --- |
| NC[C@@H](C(=O)Nc1ccc(-c2cn[nH]c2)cc1)c1ccccc1 | OECD 405 | New Zealand White rabbit | topical, 0.1 %, 56 h, day 3 | direction not given | conjunctival redness score | 0 |
| CCCC(CCC)NC(=O)c1ccc(OC2OC(C(=O)O)C(O)C(O)C2O)c(OC)c1 (stereo not shown) | – | male Sprague-Dawley rats, plasma | oral, 50 mg/kg of parent drug | baseline: 50 over 20 mg/kg dose | Cmax ratio | 2.1 |
| COc1cc2c(cc1OC)CN(CCCCn1ccc3cc(OCC[18F])ccc31)C2 | – | ICR mice, male, lung | intravenous, 60 min | – | uptake | 5.18 ± 0.83 %ID/g |
| CC(C)[C@H](NC(=O)[C@@H]1CCCN1C(=O)[C@H](CCCNC(=N)N)NC(=O)[C@H](CS)NC(=O)[C@H](Cc1c[nH]c2ccccc12)NC(=O)[C@H](CCCNC(=N)N)NC(=O)[C@@H](Cc1ccccc1)NC(=O)[C@H](Cc1c[nH]cn1)NC(=O)[C@H](CCC(=O)O)NC(=O)[C@H](CS)NC(=O)[C@H](CS)NC(=O)CNC(=O)[C@@H]1CC(=O)N[C@@H](CCCNC(=N)N)C(=O)NCC(=O)N[C@@H](CC(=O)O)C(=O)N[C@H](Cc2ccc(O)cc2)C(=O)N1)C(N)=O [technetium-99m labelled] | – | C57 mouse, female, B16/F1 melanoma | intravenous, 0.037 MBq, 24 h | baseline: tumour over blood | tumour to tissue ratio | 17.3 |
| CCn1cc(-c2cc(Cn3ccnc3)cc3c2CCN([C@H](c2cc(OC)ccn2)C2CC2)C3=O)c(C(F)(F)F)n1 | – | CD-1 male mice, plasma | intravenous, 3 mg/kg | baseline: hepatic blood flow | clearance | < 25% |
| CN1CCC[C@]1(C)/C=C/S(=O)(=O)NC(=O)Nc1c2c(cc3c1CCC3)CCC2 | – | human, plasma | oral, 50 mg twice daily, day 1, tau 12 h, multiple ascending dose | – | AUC(0-tau) | 31600 ng·h/mL |
| NC12CNCCNCC(NCc3ccc(CNC(=O)CCCC(=O)NCc4ccc(-c5nncnn5)cc4)cc3)(CNCCNC1)CNCCNC2.[64Cu+2] | OLINDA dosimetry | stomach wall | pretargeting, 24 h interval | – | absorbed dose | 0.0471 rad/mCi |
| COc1cc(NC(C)=O)c2c(c1O)-c1c(OC)c(OC)cc3c1C(C2)N(C)CC3 (stereo not shown) | – | rat brain homogenate | 5 µg/mL, 40 d, -20 °C, long-term storage | – | remaining compound | 88.5 ± 3% |
| CC[C@H](C)[C@H](NC(=O)[C@H](CC(C)C)NC(=O)[C@H](Cc1c[nH]c2ccccc12)NC(=O)[C@H](C)NC(=O)[C@@H](NC(=O)[C@H](Cc1ccccc1)NC(=O)[C@H](CC(=O)O)NC(=O)[C@H](CCCNC(=N)N)NC(=O)[C@H](C)NC(=O)[C@H](C)NC(=O)[C@H](CC(C)C)NC(=O)[C@H](C)NC(=O)[C@H](CC(=O)O)NC(=O)[C@H](CC(C)C)NC(=O)[C@@H](NC(=O)[C@@H](NC(=O)[C@H](C)NC(=O)[C@H](CC(C)C)NC(=O)[C@H](CCC(=O)O)NC(=O)[C@H](CO)NC(=O)[C@H](CO)NC(=O)[C@H](Cc1ccccc1)NC(=O)[C@@H](NC(=O)CNC(=O)[C@H](CCC(=O)O)NC(=O)CNC(=O)[C@@H](N)Cc1c[nH]cn1)[C@@H](C)O)[C@@H](C)O)[C@@H](C)CC)[C@@H](C)CC)C(=O)N[C@@H](C)C(=O)N[C@H](C(=O)N[C@@H](CCCCN)C(=O)N[C@H](C(=O)N[C@H](C(=O)N[C@@H](CC(=O)O)C(=O)N[C@@H](CCCCN)C(=O)N[C@@H](CCCCN)C(=O)O)[C@@H](C)O)[C@@H](C)CC)[C@@H](C)O | – | healthy human subjects, plasma | subcutaneous, 5 mg once weekly, day 36 after 6 doses, steady state, mean | – | terminal half-life | 17 h |
| CC(=O)N[C@H](CSSC[C@H](N)C(=O)O)C(=O)N[C@H](C)C(=O)N[C@H](CCCNC(=N)N)C(=O)N[C@H](CCCNC(=N)N)C(=O)N[C@H](CCCNC(=N)N)C(=O)N[C@H](C)C(=O)N[C@H](CCCNC(=N)N)C(N)=O | – | human, healthy males, plasma | intravenous, 0.5 to 10 mg, overall across doses | – | terminal half-life | ~19 h |
| CC(C)(O)c1ncc([S@](N)(=O)=NC(=O)Nc2c3c(cc4c2CCC4)CCC3)s1 | – | healthy human, fed | oral, 25 mg twice daily, day 14, tablet formulation, geometric mean | – | AUC(0-tau) | 27100 ng·h/mL |
| [11CH3]c1ccc2nc(C3CCC3)n(-c3ccc4[nH]ncc4c3)c2n1 | extrapolated from mouse biodistribution | human female, drain | – | – | absorbed dose | 1.2 µSv/MBq |
| Cc1[nH]c(/C=C2\C(=O)Nc3ccc(F)cc32)c(C)c1NC(=O)CCN1CCN(C)CC1 | – | dog plasma | 1.00 ng/mL, 24 h at room temperature after processing, 25 °C | – | accuracy deviation | 0.15% |
| CC(C)CCCC(C)CCCC(C)CCO[C@@H]1O[C@H](CO)[C@@H](O[C@H]2O[C@H](CO)[C@@H](O)[C@H](O)[C@H]2O)[C@H](O)[C@H]1O (stereo partly shown) | – | surfactant/n-octane/water | 1.8 wt%, 50 °C, water/oil ratio 1, together with: 1-butanol 2.7% | – | salinity range for Winsor III | 5 to 15 wt% NaCl |
| NCCC(=O)N1Cc2ccccc2-c2c(nnn2-c2nc3c(N)ncnc3n2C2OC(CO)C(O)C2O)-c2ccccc21 (mixture of isomers) | – | methanol | – | – | brightness | 0.27 M⁻¹ cm⁻¹ |
| NCCCC(=O)OCC(=O)c1cc(F)c(O)cc1F.O=C(O)C(F)(F)F | photolysis, measured: disappearance of compound | unbuffered water | – | – | quantum yield | 0.22 |
| CCCOc1ccc(S(N)(=O)=O)cc1-c1nc2c(CCC)nn(C)c2c(=O)[nH]1 | – | healthy male humans, plasma | oral, 200 mg udenafil, together with: dapoxetine 60 mg | – | terminal half-life | 11 ± 3.08 h |
| N=C(N)NCCC[C@@H]1NC(=O)[C@H](Cc2c[nH]c3ccccc23)NC(=O)[C@@H](CC2CCCCC2)NC(=O)[C@@H]2CCCN2C(=O)[C@@H](NC(=O)CCc2ccccc2)CCCNC1=O | – | C57BL/6J mice, spinal cord | oral, 1 mg/kg, two-compartment model | – | elimination rate constant | 0.00025 s⁻¹ |
| COc1ccc2cc(-c3ccc(-c4ccc(C)cn4)nc3)oc2c1 | TCSPC | acetonitrile | zinc-free ligand | – | fluorescence lifetime | 1.84 ns |
| CC(C)c1cnc(-c2cc(Cl)ccc2F)cc1Nc1ccncc1C(=O)NC(CO)CO | – | patients, phase I monotherapy | oral, dose not given, grade 4 | – | patients with AST increase | 0% |

| Structure (SMILES) | assay | system | conditions | scale | endpoint | value |
| --- | --- | --- | --- | --- | --- | --- |
| COCCOCCOCCC(=O)Oc1ccc(CC(=O)N/C=C/c2ccc(C(F)(F)F)cc2)cc1OC | eye-wiping | C57BL/6 mice, both sexes | ocular instillation, 1 min | – | moderate pain-producing concentration | 0.302 mg/mL |
| C=CCc1ccc(O)c(-c2cc(CC=C)ccc2OCCCCCCCCCC[P+](c2ccccc2)(c2ccccc2)c2ccccc2)c1 | – | C57BL/6 mouse, non-tumour-bearing, serum | dose not given, day 31 | – | total protein level | 4.7 ± 0.3 g/dL |
| NCCCC(=O)OCC(=O)c1ccc(O)c(C(F)(F)F)c1.O=C(O)C(F)(F)F | photolysis, measured: rearranged acid appearance | aqueous HEPES buffer with LiClO4 | pH 7.3 | – | quantum yield | 0.1 |
| NCC(=O)N1CCC[C@H]1C(=O)N1C[C@H](O)C[C@H]1C(=O)O | potentiometric titration | – | 25 °C, MAH-3 complex, together with: Fe(III) | – | log beta | -2.23 |
| CC[C@H](C)[C@H](NC(=O)[C@H](N)Cc1ccc(O)cc1)C(=O)N[C@H]1CSSC[C@@H](C(=O)N(C)[C@H](C(N)=O)[C@@H](C)CC)NC(=O)[C@H](CCCNC(=N)N)NC(=O)[C@H](Cc2c[nH]cn2)NC(=O)[C@H](C)NC(=O)CN(C)C(=O)[C@H](Cc2c[nH]c3ccccc23)NC(=O)[C@H](CC(=O)O)NC(=O)[C@H](CCC(N)=O)NC(=O)[C@H](Cc2cn(C)c3ccccc23)NC(=O)[C@H](C(C)C)NC1=O | UPLC-ESI-MS | cynomolgus monkey plasma | 0.36 µg/mL, 48 h, 4 °C, autosampler after SPE | – | recovery | 99.3 ± 0.4% |
| CC(C)CNC(=O)/C=C/CCc1ccc2c(c1)OCO2 | – | rat, sham-operated, plasma | oral, 50 mg/kg | – | MRT | 3.03 ± 0.93 h |
| CCc1cc(Nc2nc(-c3ccc(-n4cnc(C)c4)c(F)c3)cs2)c(C)cc1C | – | human, both sexes, plasma | oral, 200 mg, day 1, multiple dose, geometric mean | – | terminal elimination rate constant | 3.03e-05 s⁻¹ |
| COCCOCCOCCOc1ccc(/C=C/c2c(I)c(C)c3n2[B-](F)(F)[N+]2=C(C)C(I)=C(C)C2=C3c2cc(OC)cc(OC)c2)cc1 | – | dichloromethane | – | – | emission maximum | 611 nm |
| CCCC[C@H](NC(=O)CNC(=O)CNC(=O)CN1CCN(CC(=O)O)CCN(CC(=O)O)CCN(CC(=O)O)CC1)C(=O)N[C@H]1CC(=O)NCCCC[C@@H](C(N)=O)NC(=O)[C@H](Cc2c[nH]c3ccccc23)NC(=O)[C@H](CCCNC(=N)N)NC(=O)[C@@H](Cc2ccccc2)NC(=O)[C@H](Cc2c[nH]cn2)NC1=O [copper-64 labelled] | – | female C57 mouse, B16/F1 melanoma | intravenous, 0.037 MBq, 0.5 h | baseline: tumour over muscle | uptake ratio | 7.01 |
| Cc1ccc(/N=N/c2c(O)ccc3ccccc23)c(C)c1 | – | rat whole blood QC samples | 5.0 µg/L, 12 h, room temperature, short-term stability | – | measured concentration | 5.13 µg/L |
| Oc1cccc(-c2cccc(O)n2)n1.[Cl-].[Cl-].[Ru+2].c1cnc2c(c1)c1c(c3cccnc32)OCCO1.c1cnc2c(c1)c1c(c3cccnc32)OCCO1 | shake flask | octanol/acetate buffer | pH 4.00 | – | logD | 0.83 |
| Oc1cc(F)ccc1Oc1ccccc1 | – | CD-1 mice, plasma | subcutaneous, 100 mg/kg | – | clearance | 333 mL/min/kg |
| COC(=O)Cn1c(=O)c(Cc2ccccc2)nc2ccccc21 | MTT | rat primary colonocytes, Albino rat, male | 72 h, concentration at 100% viability | – | safe concentration | 0.08 ± 0.003 µM |
| CCCC1OC2CC3C4CCC5=CC(=O)C=CC5(C)C4C(O)CC3(C)C2(C(=O)COC(=O)CN(C)C)O1 (stereo not shown) | – | rat lung homogenate | 200 µg/mL, 37 °C | – | time to complete hydrolysis | ≤ 6 h |
| CC(C)(C)ONc1nc(Nc2ccnc(C(F)(F)F)c2)nc(-c2cccc(C(F)(F)F)n2)n1 | – | female Balb/cA nude mice xenograft | oral, 18.05 mg/kg, AUC(0-24 h) | baseline: tumour over plasma | tissue/plasma ratio | 7.6 |
| CC(C)CCN(Cc1ccc(F)cc1)c1nc(C#N)nc(N2CCOCC2)n1 | – | female CD-1 mice | intraperitoneal, 10 mg/kg, 4 h | – | plasma concentration | 7.4 ng/mL |
| Cn1c(=O)oc2ccc(-c3ccc(CC(C#N)NC(=O)C4CNCCCO4)c(F)c3)cc21 (stereo not shown) | measured: monocyte count increased | human volunteers | oral, dose not given | – | treatment-emergent adverse event incidence | 3.7% |
| C[C@H](Oc1cc(-c2cnn(C3CCN(CC[18F])CC3)c2)cnc1N)c1c(Cl)ccc(F)c1Cl | PET imaging | nude mouse, brain | iv, 60 min post injection | – | tracer uptake | 1.8 ± 0.6 %ID/cc |
| Cc1ccc(-c2ccc(-c3cc4sccc4o3)cn2)nc1 | – | acetonitrile | concentration not given, together with: Zn(ClO4)2, saturating | baseline: zinc-free ligand | emission shift on zinc binding | 4010 cm⁻¹ |
| CC(C)[C@H](NC(=O)CNC(=O)[C@H](CCC(N)=O)NC(=O)[C@H](C)N)C(=O)O | LC-MS/MS | human, plasma | intravenous, 10 mg/kg three times daily, day 3, first dose, 10 min infusion, geometric mean | – | AUC(0-inf) | 273 ng·h/mL |
